Results pooled from the literature.
Values joined by “and” are separate records of one study, mostly repeats; a detail may differ.

| SMILES | assay | system | setting | how to read | measurement | value |
| --- | --- | --- | --- | --- | --- | --- |
| Cc1cc([C@H]2C[C@H]3[C@@H](CF)SC(N)=N[C@@]3(c3ccc(F)cc3F)CO2)on1 |  | male 129/SVE wild-type mouse, plasma | subcutaneous, 100 mg/kg, 14 h |  | plasma concentration | 0.032 µM |
| c1ccc(-c2nc(N3CCC(c4ccccn4)C3)c3ccccc3n2)nc1 (centres unmarked) |  | mouse, Balb/c female, plasma | oral, 12.5 mg/kg, 4 h, mean, added: aminobenzotriazole pretreatment |  | plasma concentration | 3780 ng/mL |
| CC(C)(C)c1cc(NC(=O)Nc2ccc(Oc3ccnc4[nH]c(=O)cnc34)cc2F)n(-c2ccccc2)n1 |  | NSG mouse, female, tumor | oral, 20 mg/kg, 1 h after last dose |  | plasma concentration | 3.29 µM and 6.07 µM and 7.18 µM and 17.7 µM |
| C[C@]12C[C@@]34C=CC(=O)[C@@](C)(CCC(=O)Nc5c(O)ccc(C(=O)S[C@H]6CC(=O)[C@@](C)(CCC(=O)Nc7c(O)ccc(C(=O)O)c7O)[C@@H]7[C@@H]8C[C@@H]9C[C@]67C[C@]9(C)O8)c5O)[C@@H]3[C@H](C[C@@H]1C4)O2 |  | C57BL/6 mouse, plasma | intravenous, 10 mg/kg, 1 h | relative to: 1 h level | plasma concentration ratio | 3.3 |
| CSc1cc(Oc2ccnc3[nH]c(=O)cnc23)ccc1NC(=O)Nc1cc(C(C)(C)C)nn1-c1ccccc1 |  | NSG mouse, female, plasma | oral, 20 mg/kg, 1 h after last dose |  | plasma concentration | 48.4 µM and 53.5 µM and 53.9 µM and 47.7 µM and 36.1 µM |
| O=C(c1cc(-n2sc3ncccc3c2=O)ccc1Cl)N1CCOCC1 |  | mouse | iv, 1 mg/kg |  | plasma half-life | < 40 min |
| CCCCCN1C[C@H](O)[C@@H](O)[C@H](O)[C@@H]1CO | LC-MS/MS | mouse Hexb-/- female, plasma | 30 mg/kg/day, geometric mean |  | plasma concentration | 312 ng/mL |
| C[C@@H](O)[C@H]1C(=O)N2C(C(=O)O)=C(S[C@@H]3CN[C@H](C(=O)N(C)C)C3)[C@H](C)[C@H]12 |  | BALB/c mouse, male, plasma | intraperitoneal, 100 mg/kg, 2 h |  | plasma concentration | 1720 ng/mL |
